# Assay results gathered from unrelated publications.
# A part holds a random share of what one study measured. Substitutions count along the parent as printed.

# Block 1 — technique: RNA Bind-n-Seq; form: RNA; medium: in vitro; tested at: 200 nM; setting: whole 134-nt RNA, ends assumed; together with: 150 mM KCl; reference: input library; reading: higher = stronger binding
# Target: Fragile X messenger ribonucleoprotein 1, C-terminal low-complexity region (Fmr1, Mus musculus, UniProt P35922)
# Constant ends, left off below: GGGAGUUCUACAGUCCGACGAUC … UGGAAUUCUCGGGUGUCAAGG
Strand,log2 enrichment
UGGUUCUGGCAUUUAUGACCCUUGUGAAAAAGAAGCCACUGAUGCUAUUGGGCAUCUAGACAGACAGCAACGGGAAGAUAUCACACAGAG,-0.33
GUCCUGUGCUACACAUCGUAUGUACCGAAUCGGAAAAAAGGAAAAAAGGGAAAAAAGGAAAGUAUUAUGUUACGCCGUUCGGAUCUGCAC,-0.694
ACCAUGCAGGUGGGCAUCUUUGGGAAGUGGGGCAAGGGGGGGAUAGGGAGGGAGGUAACACUUUGGGAACAGGUGGUCCCAGGUCGUUUC,0.868
UCCUGUGCUACACAUCGUAUGUACCGAAUCGGUUUUUUGGGUUUUUUGGUUUUUUGGGGAAAGUAUUAUGUUACGCCGUUCGGAUCUGCA,-0.299
UGGGAGGUGGAUUUUGUUUAUUUUUUUAGCUCAUUUCCAGGGGUGGGAAUUUUUUUUUAAUAUGUGUCAUGAAUAAUGUUGUUUUUGAAA,0.128
UAAGGCCAGUAAAAUUUUAGUACCUGGAGGUUUGACUCUAAUUUUUGCACUGAUGGUGCCAAAGGGCCCUGAGUCAAAAGGAUAGCCAAG,-1.82
UGUGCUACACAUCGUAUGUACCGAAUCGGGGAAAAAAAGGGGAAAAAGGGGAAAAAAAGGGGAAAGUAUUAUGUUACGCCGUUCGGAUCU,-0.16
CAAGUCCUGUGCUACACAUCGUAUGUACCGAAUCGGCCCCGGCCCCGGCCCCGGGGAAAGUAUUAUGUUACGCCGUUCGGAUCUGCACUU,-0.603
UCCUGUGCUACACAUCGUAUGUACCGAAUCGGGGAAAAAAGGGGAAAAAAGGAAAAAAGGAAAGUAUUAUGUUACGCCGUUCGGAUCUGC,-0.264
CAAGUCCUGUGCUACACAUCGUAUGUACCGAAUCGGGUUUUGGUUUUGGUUUUGGAAAGUAUUAUGUUACGCCGUUCGGAUCUGCACUUC,-0.675
CUGUGCUACACAUCGUAUGUACCGAAUCGGCCCCCCCGGGCCCCCCCGGGGCCCCCCCGGGGAAAGUAUUAUGUUACGCCGUUCGGAUCU,-1.16
ACCAUGCAGGUGGGCAUCUUUGGGAAGUGGGGCAAGGGGGGGAUAGGGAGGGGGCUAACACUUUGGGAACAGGUGGUCCCAGGUCGUUUC,0.903
UAACUUUAGAGGAGGAUCUGAUGGAUAUGGCAGUGGACGUGGAUUUGGGGAUGGCUAUAAUGGGUACGGAGGAGGACCUGGAGGUGGCAA,0.177
AGUCCUGUGCUACACAUCGUAUGUACCGAAUCGGGAAAAAGGGAAAGGGUUUUUGGGAAAGUAUUAUGUUACGCCGUUCGGAUCUGCACU,-0.128

# Block 2 — technique: universal PBM; form: double-stranded DNA, one strand shown; medium: in vitro; tested at: 600 nM; reading: higher = stronger binding
# Target: Sal-like protein 4, full length isoform A (SALL4, Homo sapiens, UniProt Q9UJQ4, residues 1-1053)
# Sequence of UniProt Q9UJQ4 (whole entry, looked up): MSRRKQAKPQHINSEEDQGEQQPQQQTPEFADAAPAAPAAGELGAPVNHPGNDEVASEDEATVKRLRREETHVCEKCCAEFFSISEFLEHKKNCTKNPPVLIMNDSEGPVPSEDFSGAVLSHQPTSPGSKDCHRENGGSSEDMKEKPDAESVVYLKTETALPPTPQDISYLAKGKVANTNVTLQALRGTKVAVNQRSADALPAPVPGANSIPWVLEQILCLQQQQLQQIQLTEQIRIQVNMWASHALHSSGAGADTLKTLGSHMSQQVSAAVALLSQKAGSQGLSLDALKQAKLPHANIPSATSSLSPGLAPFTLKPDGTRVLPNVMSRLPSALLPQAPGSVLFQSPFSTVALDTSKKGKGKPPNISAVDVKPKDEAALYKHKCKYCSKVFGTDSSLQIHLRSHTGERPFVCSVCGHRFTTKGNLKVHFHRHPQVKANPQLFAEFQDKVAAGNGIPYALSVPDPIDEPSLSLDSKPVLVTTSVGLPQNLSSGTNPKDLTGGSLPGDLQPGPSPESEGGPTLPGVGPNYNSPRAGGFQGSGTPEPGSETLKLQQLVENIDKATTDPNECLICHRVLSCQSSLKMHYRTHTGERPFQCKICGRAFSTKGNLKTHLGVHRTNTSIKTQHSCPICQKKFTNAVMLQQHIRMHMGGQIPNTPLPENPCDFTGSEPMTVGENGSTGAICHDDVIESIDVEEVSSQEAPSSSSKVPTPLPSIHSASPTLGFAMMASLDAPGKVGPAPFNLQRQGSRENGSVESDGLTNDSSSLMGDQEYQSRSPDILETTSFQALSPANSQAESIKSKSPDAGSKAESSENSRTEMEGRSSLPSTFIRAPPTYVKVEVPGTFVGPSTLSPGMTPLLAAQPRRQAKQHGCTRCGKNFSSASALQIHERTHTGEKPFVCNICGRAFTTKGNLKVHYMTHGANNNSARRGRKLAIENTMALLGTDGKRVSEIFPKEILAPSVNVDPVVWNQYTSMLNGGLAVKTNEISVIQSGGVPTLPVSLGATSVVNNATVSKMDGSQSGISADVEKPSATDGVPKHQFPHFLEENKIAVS
# Setting: 8-mer, flanks averaged, mean of replicates
Strand,E-score
AGTGATTC,0.034
AACATCAT,0.275
TATGCGCA,0.0413
GTATCGAC,0.0368
AGCCACAC,-0.0754
CACAACTG,-0.0623
CGATACGC,-0.0895
GGGCCAAC,-0.214
GGGAAAGA,-0.159
CAAGTCCG,-0.206
ATAGAGCA,0.191
ACCCCACG,-0.323
GCCACCCC,-0.39
AACGTTAC,0.0881
AGCCGTCG,-0.328
CTGAGCTC,-0.126
GCCTGCAC,-0.283
CGGGCCCA,-0.324
CACGTGGC,-0.303
CTTCTGAC,0.0833
AGACAATG,0.125
AACCTGCG,-0.144
ATGACAGG,-0.0298

# Block 3 — technique: protein binding microarray; form: double-stranded DNA, one strand shown; medium: in vitro; tested at: not given; reference: not given; reading: higher = stronger binding
# Target: Histone acetyltransferase KAT6A, both winged helices, GST fusion (KAT6A, Homo sapiens, UniProt Q92794, residues 1-181)
# Setting: 8-mer, flanks averaged, mean of 2 arrays, mostly near background
# Residues (chain): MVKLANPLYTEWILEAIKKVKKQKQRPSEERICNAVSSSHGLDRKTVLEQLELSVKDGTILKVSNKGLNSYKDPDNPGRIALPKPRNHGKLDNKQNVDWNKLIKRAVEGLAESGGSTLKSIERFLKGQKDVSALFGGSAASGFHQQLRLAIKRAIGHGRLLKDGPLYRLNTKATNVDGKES
Strand,E-score
ATCACGTA,-0.0926
AACCAACG,-0.00535
AATCCTCC,-0.107
GCGAGACA,0.00155
ACAGTGGG,-0.212
TAGTTTGA,0.0771
ATTAAGTG,-0.0862
CTTTATAA,-0.0402
CTCTTCCA,-0.072
GATCTAAC,-0.0496
CAGATAGA,-0.244
CTTTGATA,-0.0717
ACCTAGAC,0.0207
AGCCCTAG,-0.221
CCATTACG,0.00153
CGATAACA,0.00842
CTGTGCTA,-0.000705
GTCTACCA,-0.248

# Block 4 — technique: aptamer microarray, sandwich; form: DNA with 2'F-ANA; medium: in vitro; tested at: 200 nM; together with: Cy3 exosite-II aptamer, 400 nM; reading: higher = stronger binding; strand: GGTTGGTGTGGTTGG
# Target: Prothrombin, mature alpha-thrombin (F2, Homo sapiens, UniProt P00734)
# Setting: whole 15-mer aptamer, many near background
Modification,mean fluorescence intensity
2'F-ANA at 1 4 5 6 9 11 12 14,56.5 a.u.
2'F-ANA at 1 2 4 9 10 11 12 13 14,49.4 a.u.
2'F-ANA at 2 4 5 7 8 9 11 15,57.5 a.u.
2'F-ANA at 1 5 6 7 8 9 10 11 14,52.6 a.u.
2'F-ANA at 1 4 6 8 9 10 15,92.9 a.u.
2'F-ANA at 1 4 9 10 11 12 15,59.4 a.u.
2'F-ANA at 1 4 7 8 9 10 13 14 15,70.8 a.u.
2'F-ANA at 1 4 8 9 14 15,61.4 a.u.
2'F-ANA at 2 6 8 10 11 13 14 15,74.1 a.u.
2'F-ANA at 3 5 6 7 9 10 12 15,62.3 a.u.
2'F-ANA at 3 5 10 11 12 13,61.9 a.u.
2'F-ANA at 3 6 7 9 12 14 15,507 a.u.
2'F-ANA at 2 3 9 10 11 13 14 15,220 a.u.
2'F-ANA at 1 2 3 5 10 13 15,46.3 a.u.
2'F-ANA at 2 3 4 5 6 8 9 12 14,55.2 a.u.
2'F-ANA at 1 2 5 7 8 9 10 13 15,45.9 a.u.
2'F-ANA at 1 4 5 7 10 15,63.1 a.u.
2'F-ANA at 3 4 5 10 12,80.7 a.u.
2'F-ANA at 1 2 6 7 8 10 12,127 a.u.
2'F-ANA at 1 2 4 5 7 8 11 13 15,48 a.u.
2'F-ANA at 1 3 5 6 8 12 14 15,47.6 a.u.
2'F-ANA at 5 6 8 10 13 15,44.9 a.u.
2'F-ANA at 1 2 6 7 9 10 11 14,45.2 a.u.

# Block 5 — target: CCNA1, cyclin fold, Cln2 fusion (human); technique: yeast growth competition, sequencing; medium: yeast; setting: weak parent motif; reference: not given; reading: higher = stronger binding
# Parent: ASZ1 docking peptide (human); GFGFLLFICKLTF; partner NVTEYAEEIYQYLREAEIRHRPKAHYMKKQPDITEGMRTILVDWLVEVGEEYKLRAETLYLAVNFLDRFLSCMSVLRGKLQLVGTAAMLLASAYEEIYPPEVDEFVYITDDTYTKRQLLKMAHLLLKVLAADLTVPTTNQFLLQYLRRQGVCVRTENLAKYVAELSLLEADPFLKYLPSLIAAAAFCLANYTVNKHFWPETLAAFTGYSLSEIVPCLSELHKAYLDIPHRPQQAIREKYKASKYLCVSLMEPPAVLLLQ
Substitution,normalised enrichment score
GAGFLLFICKLTF [F2A],-0.0335
GFGFLLFICKLTA [F13A],0.00423
GFGFLLFIAKLTF [C9A],-0.152
AFGFLLFICKLTF [G1A],-0.172
GFAFLLFICKLTF [G3A],0.211
GFGFLLFICKLAF [T12A],-0.217
GFGFLLFICALTF [K10A],0.659

# Block 6 — technique: RNA Bind-n-Seq; form: RNA; medium: in vitro; tested at: not given; reference: input RNA pool; reading: higher = stronger binding
# Target: RING finger protein unkempt homolog, zinc fingers 1-6, GST-SBP tag (UNK, Homo sapiens, UniProt Q9C0B0, residues 30-357)
# Setting: RNA with constant flanks, human-mouse chimeric sites, ends assumed
# Constant ends, left off below: GGGAGUUCUACAGUCCGACGAUC … CAACAGAGGAUUGAGCAUCA
# Residues (chain): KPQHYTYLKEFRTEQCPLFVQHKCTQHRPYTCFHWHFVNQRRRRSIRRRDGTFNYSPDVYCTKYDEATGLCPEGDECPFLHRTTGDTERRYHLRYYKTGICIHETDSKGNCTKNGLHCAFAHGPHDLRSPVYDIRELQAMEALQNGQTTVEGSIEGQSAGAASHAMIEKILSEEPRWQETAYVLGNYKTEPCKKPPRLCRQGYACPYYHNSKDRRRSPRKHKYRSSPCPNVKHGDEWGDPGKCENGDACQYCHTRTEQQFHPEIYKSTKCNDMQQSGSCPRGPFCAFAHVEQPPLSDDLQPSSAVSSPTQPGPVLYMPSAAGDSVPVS
Strand,bound/input enrichment [ratio]
ACUCAGAGAUCCACCUCCCAAAGUGCUGGGAGUAAAGGUGUGGCCACCACACCUAACUUGAUGGAUAUUUUAUAAAGUUAAUAUGAAUCUUCCUGUUCGUCCAGGGAGCAAGAACGGGUU,0.33
GUUGCCAGCUUCCGGUUCCGUUGGGCUCGGUUCUCUCCUGAGCUACGGUCCCUGGCACUCUCAAUCCGCCAUCCAACAAACAUGGAUCAGGUAAUGCAGUUUGUGGAUGAGCCAAGUCAG,0.0529
ACCAUUUUCGCGGUUCAGGCUUUGUGUGUAGUUCACUUACGGUAUUAAAUUAUUAUUCUGCUUAGCUUAAAGUAAGGAUUACAAUUGUUAAAGAGGUUACUGAAUGUUACUCUGAAACUU,0.805
GUCAACAGUUGUCUCAACCCCAUCCUCUACGCCUUCCUGGAUGAGAACUUCAAGGCCUGCUUCCGCAAGUUCUGCUGUGCAUCUGCCCUGCGCCGGGACGUGCAGGUUUCUGAUCGUGUG,0.291
AACAGAUUGUCUUUAAGCAUUCCAAGCGAGAAUGCUGAAAUAGUCAUUGUUGCCCAUAUAUAGUAAUACUGAGCUUUAAUGCUGUUCCAUGUUACAUCUUUCCUUCACUCCAGAAUUGUU,1.16
AUAGAUGAAAUUGAUGUGGACCAGGAAGGAAUUGCUGAAAUGAUCCUGGAUGAAAAUGCUAUAGCUCAGGUCCCACGCCCUGGCACAUCUUUGAAGCUCCCUGGAACUAACCAAACAGGA,0.379
GUGACUGGUGUUAAGAUUUACCCUCAGCAAAGAAGUGCAGUAGUCACCAUAAUUCCAUCUGUGGUGAGUGCCAGUCAGAUUGUGGAGCUGGUUCCAGACCUCAGUUUAGACAUGGGAACU,0.174
UCUUUAAAUGCACUACAACCUUUUCUGACAGUGCUUUCCCUCCCAUAGAUCCACGUUCAAGCUCAAAGAGCAAAGGCUUUGCACGGAGCUCAAACAUCUGAUGAAGAUUUUUGAGACAGA,0.493
GGUGGGGUGGUCAUUGCCGUUUGAGCUGCUGAUUUUCUUAUGAAUCAUUCAAAACUCUCGUGUAGGGUUGACACUGUGGGGGGGUGGGGGAUCCAGCUUAUUCUUUUAUUUUCAAGUCCA,0.89
AGAUUCCCCCUCCUGAGACCUCCUCCGAAAUUGGCAUCUCUUACAGAUGCCUCAUCCCCUGUUAGCGUUUUAGUUUGGACCACCCAGCCUUGGACAAUUCCAGCCAACCAGGCAAUUUGC,1.05
AUCCAGUACUCCAAUCACAAAGAACUAAAGACAGAUAAUACAUUAAACCAACGUGCUCAAGUAGUUCUUCAAGCUGUGACAGCUGUCCAGACAGCAAAUACUCCUCUUAGUGGCACCACA,0.385

# A few entries again (block 4):
Modification,mean fluorescence intensity
2'F-ANA at 2 6 8 10 11 13 14 15,74.1 a.u.
2'F-ANA at 2 3 4 5 6 8 9 12 14,55.2 a.u.
2'F-ANA at 1 4 9 10 11 12 15,59.4 a.u.
2'F-ANA at 1 4 5 7 10 15,63.1 a.u.
2'F-ANA at 1 2 5 7 8 9 10 13 15,45.9 a.u.
2'F-ANA at 1 4 7 8 9 10 13 14 15,70.8 a.u.
2'F-ANA at 2 3 9 10 11 13 14 15,220 a.u.
2'F-ANA at 3 5 10 11 12 13,61.9 a.u.
2'F-ANA at 1 5 6 7 8 9 10 11 14,52.6 a.u.
2'F-ANA at 3 6 7 9 12 14 15,507 a.u.
